Assay results gathered from unrelated publications.
Each numbered part is a random draw from the data of one study; scales do not carry over between parts.

Sample 1 — technique: RNAcompete; form: RNA; matrix: in vitro; tested at: 20 nM; notes: 7-mer, probes averaged, single round; baseline: mean of 7-mers; reading: higher = stronger binding; measurement: 7-mer Z-score
Target: PABPC1L2, full length, GST fusion (mouse, UniProt A0ABA7IW68)
Construct (chain): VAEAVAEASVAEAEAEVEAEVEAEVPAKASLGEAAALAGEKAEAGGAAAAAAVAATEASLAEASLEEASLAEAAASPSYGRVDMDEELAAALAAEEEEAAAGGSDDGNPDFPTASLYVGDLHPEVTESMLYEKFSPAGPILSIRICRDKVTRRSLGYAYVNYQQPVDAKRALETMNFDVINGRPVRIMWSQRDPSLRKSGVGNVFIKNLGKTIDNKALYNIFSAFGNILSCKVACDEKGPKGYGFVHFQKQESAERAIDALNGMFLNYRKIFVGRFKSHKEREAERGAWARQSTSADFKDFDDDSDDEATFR
CAUGUGA: -0.021
GUGGGCU: 0.0932
UAGGUCA: -0.0736
GUUCUUA: -0.248
UUUACAU: -0.079
GUUAGUG: -0.177
GAGGACA: 0.309
AAGGCGC: 0.144
GGGCUUU: 0.0932
GACUACG: -0.121
CGCAUUC: -0.373
GCAAGGG: 0.347
AGAGGAC: 0.231
AUCCCAC: -0.3
UGGAGAA: 0.254
GCGGGGA: 0.412
UGCCCAU: -0.418
ACCUCUG: -0.347
ACUCCAU: -0.0772

Sample 2 — technique: protein binding microarray; form: double-stranded DNA, one strand shown; matrix: in vitro; tested at: not given; baseline: not given; reading: higher = stronger binding; measurement: E-score
Target: Histone acetyltransferase KAT6A, winged helix 2, GST fusion (KAT6A, Homo sapiens, UniProt Q92794, residues 85-181)
Notes: 8-mer, flanks averaged, mean of 2 arrays, mostly near background
Residues (chain): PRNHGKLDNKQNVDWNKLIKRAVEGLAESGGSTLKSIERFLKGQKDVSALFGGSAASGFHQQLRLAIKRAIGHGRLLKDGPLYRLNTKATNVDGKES
AGTAAACA: -0.0242
TATGCTAA: 0.0188
AAGTGGCA: 0.0132
GGGCAAAA: 0.107
AAAGTGTT: 0.0235
AACCAGAT: 0.0174
ATCAGAAC: 0.133
ACGCGACA: 0.0925
GCCTGCTA: 0.0899
AAAAAAGG: 0.0462
ACCAAACC: 0.0986
ATGTGGCC: -0.0612
AACCACGG: -0.147
CGTGATGA: -0.144
AAATGGGA: -0.0911
GGAAGAAA: 0.159
GCTGCTAA: 0.147
CATTCGAG: -0.0766
ACTACACT: -0.0144
GTCATTGA: -0.111
ACTAAATC: 0.0395
AGTCCCTA: -0.224
CAGGTAAA: 0.0746
TTCCCAAA: 0.13
GAAGCCCA: -0.119

Sample 3 — technique: RNA Bind-n-Seq; form: RNA; matrix: in vitro; tested at: not given; notes: RNA with constant flanks, ends assumed; baseline: input RNA pool; reading: higher = stronger binding; measurement: bound/input enrichment
Target: RING finger protein unkempt homolog, zinc fingers 1-6, GST-SBP tag (UNK, Homo sapiens, UniProt Q9C0B0, residues 30-357)
Construct (chain): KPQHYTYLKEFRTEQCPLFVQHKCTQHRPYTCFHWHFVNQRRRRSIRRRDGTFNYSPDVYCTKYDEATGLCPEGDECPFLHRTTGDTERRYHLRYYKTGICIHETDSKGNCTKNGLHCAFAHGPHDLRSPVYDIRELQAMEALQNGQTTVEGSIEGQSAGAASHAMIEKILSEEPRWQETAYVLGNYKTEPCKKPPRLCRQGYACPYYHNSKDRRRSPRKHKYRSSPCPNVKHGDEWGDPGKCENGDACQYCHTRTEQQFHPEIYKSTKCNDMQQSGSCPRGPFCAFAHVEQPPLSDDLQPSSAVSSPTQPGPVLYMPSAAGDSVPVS
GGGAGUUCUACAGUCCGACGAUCGAUAUCCAUUUGAAUGAAAUGGCUGGAGACAUCUUGGUUUUUCUGACUGGCCAGUUUGAAACCGAAAAAAGUUGUGAGUUACUUUUUCAGAUGGCAGAGUCUGUUGAUUAUGAUUAUGAUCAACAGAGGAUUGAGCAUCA: 0.187 ratio
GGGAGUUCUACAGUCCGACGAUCUAAAUAUUAUAUAUAUCAAAAGCCAAAAUCUUUAUUUUUAUGCAUUUAGAAUAUUUUAAACCGUUCUCAGAUAUUAAGAAGUUGUAUGAGUUGUAAGUAAUCUUGCCAAAGGUAAAGGGGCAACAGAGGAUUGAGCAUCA: 1.7 ratio
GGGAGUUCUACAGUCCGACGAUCAUGGUUGAACUCAACGGAAAUCAGCCCAUGGAGAUCAAAGUCCUGGGUCCUUAUACCUUCCGCAUCUGUGACACCUCCAACUUCUCCGACUACAUCCGUGGAGGCAUCGUCAGUCAGGUCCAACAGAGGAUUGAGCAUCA: 0.124 ratio
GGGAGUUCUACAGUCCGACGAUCAUGUCUUUAGUUUCAGAAUAACAGUGCCAUUACCAUAUGUUUGUAUGUUGCAGUUGGAUACCGCUGAGACUCCUCCAUCUUGGUUUUCUCUUCACUCAUCCAUUUCUUCAGCUGCAUGAUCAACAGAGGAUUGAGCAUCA: 1.2 ratio
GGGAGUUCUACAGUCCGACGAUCAUGUCAGAUCUCUUCAACAAACUUGUCAUGAGGCGCAAAGGUAUCUCUGGAAAGGGACCCCGCACUGGAACCAGUGAGGGACCUGGAGGAGCCUUCUCUCGAAUGUCAGACUCCAUCCCACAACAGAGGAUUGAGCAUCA: 0.0708 ratio
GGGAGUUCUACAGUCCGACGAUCUUGUUUUGUUUUGUUUUUGAGACAGAGUCUUGCCCAGGCUUAAACUUCAGCUCCACCUGCCUCCGCCUGUUGGGAUUCAUUUUCUUUAACUCACAAAGAGUAUGCAGAGUAAGCCCCAGUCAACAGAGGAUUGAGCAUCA: 0.16 ratio
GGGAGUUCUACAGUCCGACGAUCAUAUACUAUUUAUUAUAGCAUUUUGAUACCUCAUUCCGUUUACACAUCUCAAAAGCCGCUCCGUAAUUCUCUUAUUAUUUAAAGAACCACUACACUAGAGAAUGGAAUCUACUGUGGCAACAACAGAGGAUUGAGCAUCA: 0.44 ratio
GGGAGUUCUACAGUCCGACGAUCUGGUAAAAUUCUGCUCUCAUGAACAAGGAGUCACUUCAUAGAUUGUGAUCAACAGCUUGGCCGUACUUGCUGUAAGGGAUUGAGUUGCGCCAGACUUUGUCUCUUUAUUCUUGUGCAGUGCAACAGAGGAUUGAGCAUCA: 0.228 ratio

Sample 4 — technique: aptamer microarray, sandwich; form: DNA with 2'F-ANA; matrix: in vitro; tested at: 200 nM; added: Cy3 exosite-II aptamer, 400 nM; reading: higher = stronger binding; measurement: mean fluorescence intensity; oligonucleotide: GGTTGGTGTGGTTGG
Target: Prothrombin, mature alpha-thrombin (F2, Homo sapiens, UniProt P00734)
Notes: whole 15-mer aptamer, many near background
2'F-ANA at 1 2 3 5 6 7 9 10 13 15: 48.6 a.u.
2'F-ANA at 4 6 11 13 14: 76.6 a.u.
2'F-ANA at 2 3 6 8 11 12 13 15: 761 a.u.
2'F-ANA at 2 4 8 11 13 14: 106 a.u.
2'F-ANA at 1 2 3 4 5 7 10: 46.5 a.u.
2'F-ANA at 1 3 4 6 9 14 15: 63.1 a.u.
2'F-ANA at 1 4 6 10 11: 50.5 a.u.
2'F-ANA at 1 5 7 8 9 14 15: 44.3 a.u.
2'F-ANA at 5 7 8 9 12 13 15: 113 a.u.
2'F-ANA at 3 6 7 10 12 13: 581 a.u.
2'F-ANA at 1 5 6 8 10 11 12 13: 46.6 a.u.
2'F-ANA at 1 4 5 6 8 10 11 12 13 14: 50 a.u.
2'F-ANA at 2 7 8 9 10 12 14: 97.9 a.u.
2'F-ANA at 4 6 7 9 10 11 14 15: 60.5 a.u.
2'F-ANA at 1 3 5 6 7 12: 131 a.u.
2'F-ANA at 2 3 5 7 8 12 14: 58.7 a.u.
2'F-ANA at 1 3 7 8 9 10: 89.3 a.u.
2'F-ANA at 2 3 5 6 8 9 10 12 13: 55 a.u.
2'F-ANA at 2 3 7 8 10 11 12 13 15: 418 a.u.

For quick reference, copied from above (sample 1):
GUUAGUG: -0.177
GAGGACA: 0.309
AAGGCGC: 0.144
GGGCUUU: 0.0932
GACUACG: -0.121
CGCAUUC: -0.373
GCAAGGG: 0.347
AGAGGAC: 0.231
AUCCCAC: -0.3
UGGAGAA: 0.254
